# Measured values of several laboratories.
# Protocols differ between the studies behind these lines. ± marks the error that the study gave.
Compound,assay,test system,setting,scale,inhibition
O=C1O[C@H]([C@@H](O)CO)C(O)=C1O,hydroxyl radical scavenging,,160 µM,,59.6%
CN[C@@H]1COc2c(S(=O)(=O)NC(=O)Nc3c4c(cc5c3CCC5)CCC4)cnn2C1,item: IL-18,"human participants, whole blood ex vivo","1800 mg single dose, 24 h, IL-18, circulating, adjusted for, with: LPS/ATP",relative to: baseline,102%
CN(C)c1ncnc2c1ncn2[C@@H]1O[C@H](CCl)[C@@H](NC(=O)[C@H](CSC(c2ccccc2)c2ccccc2)NC(=O)OC(C)(C)C)[C@H]1O,"protein synthesis, item: GFP",human cell-free translation,25 µM,,3%
O=C1Nc2ccccc2C1=Cc1ccccn1,"platelet aggregation, inhibitor",platelet-rich plasma,"100 µM, with: ADP 5 µM",,75.6%
CSCCNc1nc(SCCC(F)(F)F)nc2c1ncn2[C@@H]1O[C@H](COP(=O)(O)OP(=O)(O)C(Cl)(Cl)P(=O)(O)O)[C@@H](O)[C@H]1O,"platelet aggregation, light transmission aggregometry","human patients, platelet-rich plasma","dose not given, 3 h, with: TRAP 5 µM",,28.9 ± 32.6%
NCC(=O)Nc1cncc(-c2nn3c(=O)cc(N4CCNCC4)nc3s2)c1,"ADP-induced platelet aggregation, light transmission aggregometry","human, stable CAD on aspirin, ex vivo platelets","subcutaneous, 0.05 mg/kg, 60 min post-dose, median value, with: ADP 20 µM",,46.2%
COc1cc(C(=O)NS(=O)(=O)c2ccccc2C)ccc1Cc1cn(C)c2ccc(NC(=O)OC3CCCC3)cc12,"P-selectin exposure, flow cytometry, item: P-selectin",human platelet-rich plasma,"3 µM, with: CRP 5 µg/mL",,5%
CC[C@@H]1[C@H](F)C(=O)N[C@@H]1COc1nccc2cc(C(N)=O)c(OC)cc12,"ATP-site probe binding, ActivX profiling, item: MARK2, MARK3",THP-1 cell lysate,"0.2 mM, Lys2 site",,2.7%

# For quick reference, copied from above:
Compound,assay,test system,setting,scale,inhibition
CC[C@@H]1[C@H](F)C(=O)N[C@@H]1COc1nccc2cc(C(N)=O)c(OC)cc12,"ATP-site probe binding, ActivX profiling, item: MARK2, MARK3",THP-1 cell lysate,"0.2 mM, Lys2 site",,2.7%
